Experimental data of several laboratories.
Numbered parts are unrelated; each lists some results of a single study. Several values in a cell are separate wells, animals, samples, runs or records. Positions count from the first letter of the parent shown.

Series 1
Target: tungstate, free oxyanion
Technique: microfluidic competitive inhibition
Medium: in vitro, cell-free expressed
Concentration: not given
Setting: derived from inhibition constants, unchanged parent 2230 nM
Reading: lower = stronger binding
Starting sequence: PafA, mature enzyme, eGFP fusion (Elizabethkingia meningoseptica, UniProt Q9KJX5); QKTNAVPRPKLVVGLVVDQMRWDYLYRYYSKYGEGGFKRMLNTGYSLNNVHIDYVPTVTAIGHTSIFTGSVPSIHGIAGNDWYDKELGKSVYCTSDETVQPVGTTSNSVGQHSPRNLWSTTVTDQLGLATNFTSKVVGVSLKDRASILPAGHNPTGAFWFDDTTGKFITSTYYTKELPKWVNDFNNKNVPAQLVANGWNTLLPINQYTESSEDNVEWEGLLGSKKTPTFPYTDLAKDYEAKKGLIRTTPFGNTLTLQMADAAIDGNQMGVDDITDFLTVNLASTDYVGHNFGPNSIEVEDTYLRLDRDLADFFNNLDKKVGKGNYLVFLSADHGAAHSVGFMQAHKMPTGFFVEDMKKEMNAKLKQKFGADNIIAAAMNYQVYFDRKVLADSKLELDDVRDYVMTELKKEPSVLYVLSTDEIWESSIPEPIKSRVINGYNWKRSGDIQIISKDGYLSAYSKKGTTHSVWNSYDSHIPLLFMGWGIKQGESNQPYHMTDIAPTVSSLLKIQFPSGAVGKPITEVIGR
| Variant | oxyanion analog dissociation constant [nM] |
| --- | --- |
| V468G | 1110 |
| W82V | 4400 |
| G127V | 2390 |
| S330G | 2060 |
| S46V | 2580 |
| P428G | 1070 |
| G151A | 1520 |
| I374V | 2370 |

Series 2
Molecule: meglumine antimoniate
Organism: Leishmania infantum chagasi
Technique: qPCR
Species: golden hamster chronic infection
Route: intraperitoneal
Dose: 50 mg/kg/day
Time: 10 days
Relative to: microglobulin
| item | medium | delta Ct |
| --- | --- | --- |
| IFN-γ mRNA | spleen | 10.2 cycles and 11.5 cycles and 11.7 cycles and 11.9 cycles and 13.4 cycles and 10.9 cycles |
| IL17 mRNA | liver | 17.2 cycles and 16.4 cycles and 13.3 cycles and 14.7 cycles and 17 cycles and 15.5 cycles |
| IL4 mRNA | spleen | 10.5 cycles and 11 cycles and 10.3 cycles and 12.6 cycles and 9.39 cycles and 10.6 cycles |
| IL4 mRNA | liver | 14 cycles and 15.6 cycles and 14.8 cycles and 15 cycles |
| TGF-β mRNA | liver | 4.06 cycles and 4.14 cycles and 4.43 cycles and 5.68 cycles and 5.04 cycles and 4.15 cycles |
| IFN-γ mRNA | liver | 14 cycles and 12.9 cycles and 9.68 cycles and 12.4 cycles and 14.2 cycles and 11.1 cycles |
| IL10 mRNA | liver | 11.7 cycles and 12.7 cycles and 11.5 cycles and 12.4 cycles and 11.9 cycles and 12.8 cycles |

Other studies, line by line
| SMILES | tested on | test | setting | scale | quantity | result |
| --- | --- | --- | --- | --- | --- | --- |
| CS(=O)(=O)NCC[C@H](NC(=O)c1cncc2c1cnn2-c1ccc(F)cc1)c1ccnc(S(C)(=O)=O)c1 | pknB (Mycobacterium tuberculosis, UniProt P9WI81) | cell-free assay, competition with immobilised ligand | 1 µM |  | remaining binding | 93% |
| NC1=NC(=O)C(c2ccccc2)O1 (centres unmarked) | Sarcocystis neurona | parasite growth | 10 µM, 96 h, second screen | relative to: untreated | log2 fold change | 0.33 |
